{"data": "Published values gathered from unrelated publications", "note": "Protocols differ between the studies behind these lines. ± gives the spread as reported."}
{"SMILES": "O=C(C1CCN(c2nnnn2-c2ccccc2)CC1)N1CCCc2ccccc21", "tested on": "Plasmodium falciparum", "test system": "erythrocytes, Dd2, cytb variant", "endpoint": "IC50", "value": "0.707 µM"}
{"SMILES": "CC/C=C\\C/C=C\\C/C=C\\C/C=C\\C/C=C\\C/C=C\\CCC(=O)Nc1ccn(C2OC(CO)C(O)C2(F)F)c(=O)n1 (stereo not shown)", "tested on": "OVCAR-5", "test": "NCI60 screen", "endpoint": "CC50", "value": "63.8 µM"}
{"SMILES": "CC(C)C[C@H](NC(=O)[C@H](CC(=O)O)NC(=O)[C@H](CC(C)C)NC(=O)[C@H](CC(=O)O)NC(=O)CNC(=O)[C@@H]1CCCN1C(=O)[C@H](CCCCN)NC(=O)[C@H](CC(C)C)NC(=O)[C@H](Cc1c[nH]c2ccccc12)NC(=O)[C@@H]1CCCN1)C(=O)O", "tested on": "dengue virus type 2", "test": "plaque reduction", "test system": "LLC-MK2, New Guinea C", "endpoint": "IC50", "value": "> 500 µM"}
{"SMILES": "CC[C@H](C)[C@H](NC(=O)[C@H](CC(C)C)NC(=O)[C@H](Cc1c[nH]cn1)NC(=O)[C@H](Cc1c[nH]cn1)NC(=O)[C@@H](NC(=O)[C@H](Cc1ccccc1)NC(=O)[C@H](CC(N)=O)NC(=O)[C@H](Cc1c[nH]c2ccccc12)NC(=O)[C@@H](NC(=O)[C@H](Cc1c[nH]cn1)NC(=O)[C@H](Cc1c[nH]cn1)NC(=O)[C@H](Cc1c[nH]c2ccccc12)NC(=O)[C@@H](N)CC(C)C)[C@@H](C)CC)C(C)C)C(N)=O", "tested on": "Herpes simplex virus 1", "test": "viral attachment, plaque reduction", "test system": "Vero, F", "conditions": "1 h, 4 °C", "endpoint": "IC50", "value": "0.63 µg/mL"}
{"SMILES": "CC(=O)CCC1C(=O)NC(C(C)C)C(=O)NC(Cc2cc(O)cc(F)c2)C(=O)N2CCCC(N2)C(=O)OC(C(C)=CC=CC(=O)N2CCCCO2)CC=CC=CC(O)C(C)C1O (stereo not shown)", "tested on": "hepatitis B virus", "test": "viral replication, measured: HBV DNA", "test system": "HBV stable cell line", "endpoint": "IC50", "value": "0.95 µM"}
{"SMILES": "CNCCN(C)c1ccc(Nc2cc(NC3CC3)n3ncc(C#N)c3n2)cc1NC(C)=O", "tested on": "murine hepatitis virus", "test": "viral replication, nanoluciferase reporter", "test system": "DBT", "conditions": "10 h", "endpoint": "IC50", "value": "0.00251 µM"}
{"SMILES": "CC[C@H](C)[C@H](NC(=O)[C@H](Cc1ccccc1)NC(=O)[C@H](CC(=O)O)NC(=O)[C@H](CCCCN)NC(=O)[C@H](C)NC(=O)[C@H](CCCCN)NC(=O)[C@H](CC(N)=O)NC(=O)[C@H](CC(C)C)NC(=O)[C@H](Cc1c[nH]c2ccccc12)NC(=O)[C@H](CCC(=O)O)NC(=O)[C@H](CCCCN)NC(=O)[C@H](Cc1c[nH]c2ccccc12)NC(=O)CNC(=O)[C@H](C)N)C(=O)N[C@@H](CCCCN)C(=O)N[C@@H](CCC(=O)O)C(=O)N[C@@H](CCCCN)C(=O)NCC(=O)N[C@@H](CC(C)C)C(=O)NCC(=O)N[C@@H](CCSC)C(=O)N[C@@H](CC(C)C)C(=O)N[C@@H](CO)C(=O)N[C@@H](C)C(=O)N[C@@H](C)C(=O)N[C@@H](C)C(=O)N[C@@H](CC(N)=O)C(=O)N[C@@H](C)C(=O)N[C@@H](C)C(=O)N[C@@H](CC(C)C)C(=O)N[C@@H](CC(N)=O)C(=O)O", "tested on": "Haemonchus contortus", "test": "larval development", "test system": "Kirby isolate", "conditions": "6 days, 26 °C", "endpoint": "IC50", "value": "16.6 ± 2.5 µM"}
{"SMILES": "O=P(O)(O)Oc1c2c(c(OP(=O)(O)O)c3c1C1CC3c3cc4c(cc31)C1CC4c3ccccc31)C1CC2c2cc3c(cc21)C1CC3c2ccccc21", "tested on": "human respiratory syncytial virus", "test": "viral infection, GFP reporter, flow cytometry", "test system": "A549", "conditions": "virus pretreated 30 min", "endpoint": "IC50", "value": "61.5 µM"}
{"SMILES": "CSC[C@H]1CN(Cc2c[nH]c3c(N)ncnc23)C[C@@H]1O", "tested on": "Campylobacter jejuni", "test": "cell growth", "conditions": "16.4 h", "endpoint": "IC50", "value": "4.2 ± 1.3 µM"}
{"SMILES": "CC(=O)N[C@H](C(=O)N[C@@H](CCCCNC(=O)CCC(=O)OC[C@@H]1O[C@H](n2ccc(N)nc2=O)CS1)C(=O)N[C@H](C(=O)N[C@@H](CCCCNC(=O)CCC(=O)OC[C@@H]1O[C@H](n2ccc(N)nc2=O)CS1)C(=O)N[C@H](C(=O)N[C@@H](CCCCNC(=O)CCC(=O)OC[C@@H]1O[C@H](n2ccc(N)nc2=O)CS1)C(=O)N[C@@H](CCC(=O)O)C(=O)N[C@@H](CCC(=O)O)C(N)=O)C(C)C)C(C)C)C(C)C", "tested on": "hepatitis B virus", "test": "HBV DNA release, qPCR", "test system": "HepAD38, culture supernatant", "endpoint": "IC50", "value": "0.12 µM"}
{"SMILES": "CN(C)CC1CCCCC1(O)c1cccc(O)c1 (stereo not shown)", "tested on": "human P-glycoprotein", "test system": "Caco-2 TC7 monolayer", "conditions": "50 µM, 3 h, apical pH 6.8, basolateral pH 7.4, added: cyclosporine A 10 µM", "scale": "baseline: B-to-A over A-to-B", "endpoint": "efflux ratio", "value": 3}
{"SMILES": "O=C1C[C@@H](c2ccc(O)cc2)Oc2cc(O)ccc21", "test system": "Sprague-Dawley rat, Freund's adjuvant arthritis", "conditions": "oral, 10 mg/kg, 2 h, added: aconitine 1 mg/kg", "endpoint": "hind paw volume", "value": "1.81 ± 0.04 mL"}
{"SMILES": "CN[C@](C)(C[18F])C(=O)O", "tested on": "SK-OV-3 tumour model", "test system": "host not given, lung", "conditions": "1 h, tumour-bearing", "endpoint": "tracer uptake", "value": "1.6 %ID/g"}
